Experimental data gathered from unrelated publications.
Each numbered part is a random draw from the data of one study; scales do not carry over between parts.

Block 1
Target: RING finger protein unkempt homolog, zinc fingers 1-6, GST-SBP tag (UNK, Homo sapiens, UniProt Q9C0B0, residues 30-357)
Sequence of UniProt Q9C0B0 (30-357, looked up): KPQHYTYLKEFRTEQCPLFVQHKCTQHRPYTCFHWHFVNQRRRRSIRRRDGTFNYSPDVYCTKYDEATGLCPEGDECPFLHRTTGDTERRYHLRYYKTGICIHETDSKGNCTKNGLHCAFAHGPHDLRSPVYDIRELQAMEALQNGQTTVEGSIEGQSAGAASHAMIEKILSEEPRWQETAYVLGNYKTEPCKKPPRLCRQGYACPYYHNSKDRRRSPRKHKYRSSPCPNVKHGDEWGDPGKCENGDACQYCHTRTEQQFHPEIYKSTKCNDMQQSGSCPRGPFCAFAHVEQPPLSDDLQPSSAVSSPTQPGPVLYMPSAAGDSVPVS
Technique: RNA Bind-n-Seq
Form: RNA
Medium: in vitro
Tested at: not given
Notes: RNA with constant flanks, human and mouse sites, ends assumed
Reference: input RNA pool
Direction: higher = stronger binding
All sequences stand within: GGGAGUUCUACAGUCCGACGAUC … CAACAGAGGAUUGAGCAUCA
Oligonucleotide	bound/input enrichment
GUGCAGCUAAGGAAACAGCAUGCAGUCAUGAUUGUUAGAUGAGAGACACUAAAGUACAGUUAGCUGCCAACAAGUAUUAAGGAUUACUCUGCAAAACUUCCCAGUUGCCAGCUGCCAGAG	0.527 ratio
GAAACGGUGUAUGACAUUGCUGUAUCAAAGUUGUAAAAUUAAGCAUUAUUUAUUGAAAACUAUGUAUUUUUUUGUAAAAACCUGAUCACAUAGAGAAUAUCAGUGGCUUGUGCUUGUGCU	0.525 ratio
UGCUCUGGAAGCUGCUAUUGCCCGGUAAGAAACCAGUAUCUGGAAAAGGAGCAGCGUCGUCAGUACCUCCUACGUUUGAAAAACAGCCAGCUGGAGAAGACCUACGGGGAGAUGGCCAAG	0.147 ratio
CUGGAGUCUCCUGUUGUUCAGCCCACACAGUCCUUCAUGGAGGUCUACUCCUGCCCUUACUGUACCAACUCCCCUAUCUUUGGCUCCAUCCUGAAGCUCACUAAACACAUUAAAGAGAAC	0.462 ratio
CAUGGCCAUGGUAAAAUGGAACUUCCAGAUUACAGACAGUGGAAAAUUGAAGGGACGCCAUUAGAAACGGUGCAGAAGAAGCUUGCUGCCCGAGGGCUGAGGGAUCCAUGGGCUCGCAAU	0.589 ratio
GAACUGCCUCUUCGAUUCCCUGAGCCAGAUGCUGAGGAAAAAUGUAGAAAAGCGAGCUUUGCUGGAGAACAUGGAGGGCCUCUUCUUGGCUGUGGAUGAAAUUGUAGAUGGAGGGGUGAU	0.381 ratio
GAAGAAUGGAAUGAACAUAAUGCCAAAAUAAUUAAAUAUAUAAGAACUAAGACAAAGCCCCAUUUGUUUUAUAUUCCUGGAAGAAUGUGUCCAGCUACCCAAAAACUAAUAGAAGAGUCA	3.39 ratio
AGCAUGUUACAGCGGAAAAUUGCAGAGCUCGAGGAAGAACAGUCCCAGGGCUCCACCACAAAUAGUGACUGGAUGAAAAACCUCAUCUCCCCUGACUUAGGAGUUGUAUUUCUCAAUGUA	0.406 ratio
GAGUUUGCAGCAGGUCCUGCUCAAUCUGGAAUUUUGUCAGACCGUGAAGUGGUAAACCUCUUUCUUCAUUUUACCGUCAAUCCUAAACCCCGAGUAGAGUACAUUGAUCGGCCACGAUGC	0.22 ratio
AACCCAUGGCUGCUUUGUGUCACCUCAGUGACUUACAGUCCCCCUUGGCAUUUAGUUGGUACUAGAGCCAGUCAUCCUUAACAAAUCUUUUCACAUUUUAUUUCUUUCACAUGUAGUCAU	9.75 ratio
AACACAUGCUGAACACUGAGCUUCUAAUUGUUGUCCAAGGAACCCAUGUAUUCAUUAUACCAUGCUGAGGUUUGGUUUAAAAGAUCUAGGCAACUUAUUUAAUCUUAUUUAAACAAAUAU	1.54 ratio

Block 2
Target: Fragile X messenger ribonucleoprotein 1, C-terminal low-complexity region (Fmr1, Mus musculus, UniProt P35922)
Technique: RNA Bind-n-Seq
Form: RNA
Medium: in vitro
Tested at: 200 nM
Notes: whole 134-nt RNA, ends assumed
With: 150 mM LiCl
Reference: input library
Direction: higher = stronger binding
Each molecule: 7-deaza-guanosine replaces G
All sequences stand within: GGGAGUUCUACAGUCCGACGAUC … UGGAAUUCUCGGGUGUCAAGG
Oligonucleotide	log2 enrichment
CAAGUCCUGUGCUACACAUCGUAUGUACCGAAUCGGUUUGGUUUGGGGUUUGGGGAAAGUAUUAUGUUACGCCGUUCGGAUCUGCACUUC	-1.46
CCUGUGCUACACAUCGUAUGUACCGAAUCGGGUUUUUUGGGGUUUUUUGGGGUUUUUUGGGAAAGUAUUAUGUUACGCCGUUCGGAUCUG	-0.201
CCUCAAGUCCUGUGCUACACAUCGUAUGUACCGAAUCGGGGUGGUGGUGGGGAAAGUAUUAUGUUACGCCGUUCGGAUCUGCACUUCCAG	-0.31
UAACUUUAGAGGAGGAUCUGACGGAUAUGGCAGUGGACGUGGAUUUGGGGAUGGCUAUAAUGGGUAUGGAGGAGGACCUGGAGGUGGCAA	0.454
CAAGUCCUGUGCUACACAUCGUAUGUACCGAAUCGGGAGGGAAAAAGGGAAAGGGAAAGUAUUAUGUUACGCCGUUCGGAUCUGCACUUC	-0.226
CUGUGCUACACAUCGUAUGUACCGAAUCGGGAAAAAAAGGGAAAAAAAGGGAAAAAAAGGGAAAGUAUUAUGUUACGCCGUUCGGAUCUG	0.122
ACCAUGCAGGUGGGCUUCUUUGGGAAGUGGGGCAAGGGGGGGAUAGGGAGGGGGGUAACACUUUGGGAACAGGUGGUCCCAGGUCGUUUC	0.531
GCAGGAAGUAAAAACAAAUGGAAAUGCUUUGGAUAGUGGCAGGGGUGGGGGUUGCUAAGGAAAGGGUGGGAUGGGAGUGGGUAAAGAGUU	1.88
AGUCCUGUGCUACACAUCGUAUGUACCGAAUCGGGAAAAGGGGAAAAGGGGAAAAGGAAAGUAUUAUGUUACGCCGUUCGGAUCUGCACU	-0.746
UAACUUUAAAGGAGGAUCUGAUGGAUAUGGCAGUGGACGUGGAUUUGGGGAUGGCUAUAAUGGGUAUGGAGGAGGACCUGGAGGUGGCAA	0.54
CUCAAGUCCUGUGCUACACAUCGUAUGUACCGAAUCGGGAAGGGAAGGGGAAGGAAAGUAUUAUGUUACGCCGUUCGGAUCUGCACUUCC	-0.559

Block 3
Target: RNA binding protein fox-1 homolog 2, RRM domain, GST-SBP tag (RBFOX2, Homo sapiens, UniProt O43251-10, residues 100-194)
Technique: RNA Bind-n-Seq
Form: RNA
Medium: in vitro
Tested at: 365 nM
Notes: natural RNA segment, single round, ends assumed
Reference: no-protein control
Direction: higher = stronger binding
All sequences stand within: GGGAGUUCUACAGUCCGACGAUC … UGGAAUUCUCGGGUGCCAA
Target sequence (chain): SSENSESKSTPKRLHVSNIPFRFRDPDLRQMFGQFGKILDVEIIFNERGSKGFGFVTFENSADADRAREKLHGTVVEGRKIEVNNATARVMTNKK
Oligonucleotide	RBNS enrichment (R)
ACCCACAGUGUUACCUGACUUAUGAAACUUGAAACCGCCUCUGGAGCCGCCAUUCUGCAGAGUAUUUGGAAAAAGAAAAAAGGGUUUAUGCUUACGUCUCUGGGGUCGGG	0.308
AACAAAAACUUUUUAAUAGUCAAACUGAAUUACCUUGUUUUAUAAAUGUUAAAUUGUUUAUAUUUAAGUAAUUAGCUUAAAAAUAUAGUUUUAUGUUUUGUACAUUAAUU	0.694
AAAUAUUACAGCAAUACACUGGGCUAGUGUCUCACAAAUAACUGAUUUACUCAGAGCCACCUGACAGCAGGCCACUAGUGACAGUUUCUGUUAUGUUCCUAUGGAAACAC	0.322
GAGCUGCAUAAUGUCCCUCUCUUGGCUAUUGACCAUGUGGUUCACGUACAAAACUCUGUAUAAGUUGAAGGAAAAUGUUCAUGUUCAUAUGUACUUGUUUGCUAUGACUA	0.346
CAGCCCUGGCAAAGGGCUUCUGCUCACCACAGAUCUAUAGCCAGUCUGAAUAGAGGAAGAGAGAACCCCACAACAGCCAUACACGGGUAGUGUCCCUUUCCUCUCAGAGC	0.225
CCCAGAAGCCUGGGCUUAGGGUGGAGAUGCCGCCUACACACGAUCCUGGCCCUCCACCUGCCUCCAGGCCACGAAAUGGGAAUUCCAGCACUAAGCCAGGCACCGGGCAG	0.301
GCCACCAAGGCCCCAAAGGAUAGGGACGGUCGUAUCCUUAUGAAUCCCACUAAAACUUAGGCUGGGAAUGACAGUUUUCCUUUCCAGUCUCAGUUCAUGAGAACCCAUUU	0.184
AUUAAUAUUCCCAUUUUAUUAAUAAUAUUUAUGUUGGGUCAAGUGUUAGGUCAAUAACACUGUAUUUUAAUGUACUUGAAAAAUGUUUUUAUUUUUGUUUUAUUUUUGAC	0.49
AUCUAGGACCCUAGUCUUUGUACUUGAUGCCUUGUUUCCCCCCUUUUCUUCUUUAAAAUUGGGGACCUAUAACAUCAUCGCUGUUGCGGAAUCCACUUAGGCAUGUGUCC	0.349
AUGACUCUGUAUUUGACCUGUCUAUCUUCUCCAAGGGCAAAAAUCCUCUAAAUGCCACUCACAUCUUUCAGUCUCACAAUGCACAUCACGGAUAGCUUACUAAUCUUGGA	0.765
UGCUGAGGUUGGGGGCUCUGCCAUCCCUCCCCUGCUGGGUACCCUGUUACCAUUCAUUGUCUGUGCUGUUUCCCAUUGUGCCCAGCAGUAGCAACAACAAGAUCACAUGG	0.388
UAUCACUUUUUCAGCUGAUAUAUUCAUUUUAAUGGCUUUUUUGAAAGUUCCUUUUUCAUGAACACACCCGAGAAAUCUUAAAUAGACACUUUGCAAUAUUUAAGAACCUA	0.545

Block 4
Target: Histone acetyltransferase KAT6A, winged helix 2, GST fusion (KAT6A, Homo sapiens, UniProt Q92794, residues 85-181)
Technique: protein binding microarray
Form: double-stranded DNA, one strand shown
Medium: in vitro
Tested at: not given
Notes: 8-mer, flanks averaged, mean of 2 arrays, mostly near background
Reference: not given
Direction: higher = stronger binding
Residues (chain): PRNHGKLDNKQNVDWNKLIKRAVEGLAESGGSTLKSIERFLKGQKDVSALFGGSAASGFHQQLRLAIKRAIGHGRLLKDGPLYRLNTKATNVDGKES
Oligonucleotide	E-score
CTAGCTAA	0.0682
TAGCGAAA	0.0642
CTCCATCC	-0.128
ACAACATA	-0.0448
TGTACACA	0.00296
ATGACCTC	-0.144
GTGTATAA	-0.111
ACAAAAAC	0.137
ACACTCCC	-0.039
CCGAGGGA	0.109
ACGGAGGA	-0.137
GAACACGA	0.0532
CTGTATGC	0.02
AAAGGCTG	-0.0343
GACGTCTA	-0.277
CCAGGGAA	-0.0464
CTTTATGC	0.0814
ATCAGGGC	0.147
CTACCCAG	-0.14
AAGTCAAG	-0.28
GCGTGCTA	-0.172
CGAAGAAG	0.0614
CGTTATCC	-0.163
CCCTTACG	-0.153
AGAGACAG	-0.0543
